Measured values pooled from the literature.
Numbers after ± are the reported error.
Ubiquitin carboxyl-terminal hydrolase 39 ZnF-UBD domain: Ubiquitin carboxyl-terminal hydrolase 39, ZnF-UBD domain (Homo sapiens, UniProt Q53GS9)
UniProt Q53GS9, sequence (whole entry, looked up): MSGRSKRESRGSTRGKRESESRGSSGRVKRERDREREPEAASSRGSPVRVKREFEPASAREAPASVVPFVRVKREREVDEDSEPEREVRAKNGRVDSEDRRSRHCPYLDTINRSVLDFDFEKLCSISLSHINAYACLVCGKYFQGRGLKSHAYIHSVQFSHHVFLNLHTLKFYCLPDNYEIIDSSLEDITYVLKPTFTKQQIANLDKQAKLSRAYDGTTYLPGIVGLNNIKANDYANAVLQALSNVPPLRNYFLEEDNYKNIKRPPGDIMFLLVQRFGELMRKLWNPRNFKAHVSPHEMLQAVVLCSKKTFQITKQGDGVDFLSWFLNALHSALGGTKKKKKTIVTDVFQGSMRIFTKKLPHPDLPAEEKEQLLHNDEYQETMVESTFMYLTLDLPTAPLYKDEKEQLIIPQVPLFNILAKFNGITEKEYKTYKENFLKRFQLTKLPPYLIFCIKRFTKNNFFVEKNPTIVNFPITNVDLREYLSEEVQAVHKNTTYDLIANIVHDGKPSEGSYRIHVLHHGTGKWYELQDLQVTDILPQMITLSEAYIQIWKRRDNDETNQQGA
Alpha-carbonic anhydrase: Alpha-carbonic anhydrase (Enterococcus faecium, UniProt Q3XYE8)

| Compound | tested on | test | system | conditions | measurement | value |
| --- | --- | --- | --- | --- | --- | --- |
| CSc1cc(C)nc(SC)c1NC(=O)CN1CCN(CCSc2nc3ccccc3[nH]2)CC1.Cl | – | – | mouse Crl:CD1 (ICR), female, olfactory bulb | intranasal, 10 µL of CA solution once daily for 7 days, 120 min after last dose, LLOQ 1 ng/g | tissue concentration | not detected |
| O=C(O)CCOc1ccccc1 | Ubiquitin carboxyl-terminal hydrolase 39 ZnF-UBD domain | – | – | – | Kd | > 1000 µM |
| NS(=O)(=O)c1nnc(NC(=O)CN2CC3CCC2CC3)s1 | Alpha-carbonic anhydrase | CO2 hydration, inhibitor, stopped-flow kinetics | – | – | Ki | 0.0366 µM |
| COc1ccc2c(=O)n(C)c(-c3ccccc3)nc2c1 | – | – | Sprague-Dawley rat, brain | oral, 30 mg/kg, 4 h | tissue concentration | not detected |
| CC(C)(C)OCC(=O)Nc1nnc(S(N)(=O)=O)s1 | Alpha-carbonic anhydrase | CO2 hydration, inhibitor, stopped-flow kinetics | – | – | Ki | 0.0752 µM |
| O=c1cc(-c2ccc(O)cc2)oc2c([C@@H]3OC[C@H](O)[C@H](O)[C@H]3O)c(O)c([C@@H]3O[C@H](CO)[C@@H](O)[C@H](O)[C@H]3O)c(O)c12 | – | UHPLC-MS/MS | C57BL/6J mouse, intestines | oral, dose not given | tissue concentration | 0.27 ng/g |
| Cc1nc2ccc(OCc3ccc(C(F)(F)F)cc3)cc2[nH]1 | – | – | Balb/c mouse, male, kidney | intravenous, 1 mg/kg, 72 h | tissue concentration | 4.1 ± 1.7 ng/g |
| CN(C(=O)n1cnc(-c2ccc[n+]([O-])c2)c1)[C@H]1CC[C@H](O)CC1 | – | – | rat, cortex | oral, 10 mg/kg daily for 5 days, 24 h | tissue concentration | 8.6 ± 0.4 ng/g |
| O=C(O)CC1Oc2ccccc2NC1=O (stereo not shown) | Ubiquitin carboxyl-terminal hydrolase 39 ZnF-UBD domain | – | – | – | Kd | > 1000 µM |
| NC/C(=C\F)COc1cccc(Cn2c(=S)[nH]c(=O)c3[nH]cnc32)c1 | – | – | C57BL/6J mice, heart | oral, 15 mg/kg single, 2 h | tissue concentration | 73 ng/mL |
| OCc1nc2ccc(NCc3ccc(C(F)(F)F)cc3)cc2[nH]1 | – | – | Balb/c mouse, male, liver | oral, 10 mg/kg, 48 h | tissue concentration | 5.1 ± 1.1 ng/g |
| CN(C(=O)n1cnc(-c2cccnc2)c1)[C@H]1CC[C@H](O)CC1 | – | – | rat, hippocampus | oral, 10 mg/kg single dose, 1 h | tissue concentration | 16.5 ± 1 ng/g |
| CCc1c2c(nc3ccc(OC(=O)N4CCC(N5CCCCC5)CC4)cc13)-c1cc3c(c(=O)n1C2)COC(=O)[C@]3(O)CC | – | – | mouse Mrp2(−/−), colon | intraperitoneal, 50 mg/kg, 24 h | tissue concentration | 17900 ± 13200 ng/g |
